Measurements pooled from the literature.
Each numbered part is a random draw from the data of one study; scales do not carry over between parts.

Set 1
Target: UBE2W UBC core domain (UniProt Q96B02)
Method: yeast two-hybrid
Medium: yeast
Notes: mostly zero background
Reference: not given
Reading: higher = stronger interaction
B1: TRIM4 RING domain (UniProt Q9C037); chain EAEDIQEELTCPICLDYFQDPVSIECGHNFCRGCLHRNWAPGGGPFPCPECRHPSAPAALRP
B2: TRIM5 RING domain (UniProt Q9C035); chain ILVNVKEEVTCPICLELLTQPLSLDCGHSFCQACLTANHKKSMLDKGESSCPVCRISYQPENIRP
B3: RNF111 RING domain (UniProt Q6ZNA4); chain EGTEEDTEEKCTICLSILEEGEDVRRLPCMHLFHQVCVDQWLITNKKCPICRVDIEAQLPSE
B4: TRIM24 RING domain (UniProt O15164); chain EAARLNLLDTCAVCHQNIQSRAPKLLPCLHSFCQRCLPAPQRYLMLPAPMLGSAETPPPVPAPGSPVSGSSPFATQVGVIRCPVCSQECAERHII
B5: TRIM5 RING domain (UniProt Q9C035); chain LREVKLSPEGQKVDHCARHGEKLLLFCQEDGKVICWLCERSQEHRGHHTFLTEEVAREYQVKL
B6: SH3RF2 RING domain (UniProt Q8TEC5); chain DDLTLLDLLECPVCFEKLDVTAKVLPCQHTFCKPCLQRVFKAHKELRCPECRTPVFSNIEAL
B7: RNF208 RING domain (UniProt Q9H0X6); chain SSAAAGEPLECPTCGHSYNVTQRRPRVLSCLHSVCEQCLQILYESCPKYKFISCPTCRRETVLFTDYG
Target sequence (chain): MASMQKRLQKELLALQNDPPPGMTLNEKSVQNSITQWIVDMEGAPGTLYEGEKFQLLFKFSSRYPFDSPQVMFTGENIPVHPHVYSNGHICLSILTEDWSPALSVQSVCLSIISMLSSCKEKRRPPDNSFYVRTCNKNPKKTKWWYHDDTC
| Molecule | lacZ reporter activity |
| --- | --- |
| B1 (TRIM4 RING domain) | 0 |
| ASLPTSEEDLCPICYAHPISAVFQPCGHKSCKACINQHLMNNKDCFFCKTTIVSVEDWE (RNF123 RING domain (UniProt Q5XPI4)) | 0 |
| VEPSEENSKDCVVCQNGTVNWVLLPCRHTCLCDGCVKYFQQCPMCRQFVQESFALC (CGRRF1 RING domain (UniProt Q99675)) | 0 |
| B2 (TRIM5 RING domain) | 0 |
| B3 (RNF111 RING domain) | 3720 |
| B4 (TRIM24 RING domain) | 0 |
| B5 (TRIM5 RING domain) | 0 |
| PAELEVQASECVVCLEREAQMIFLNCGHVCCCQQCCQPLRTCPLCRQDIAQRLRIY (LRSAM1 RING domain (UniProt Q6UWE0)) | 0 |
| B6 (SH3RF2 RING domain) | 0 |
| B7 (RNF208 RING domain) | 0 |
| MPIRALCTICSDFFDHSRDVAAIHCGHTFHLQCLIQWFETAPSRTCPQCRIQVGKRTIIN (TRAIP RING domain (UniProt Q9BWF2)) | 2630 |

Set 2
Target: HLA class I histocompatibility antigen, A alpha chain, allele A*80:01 (Homo sapiens, UniProt P04439)
Read-out: peptide-MHC binding
Molecule type: peptide
Tested at: concentration not given
| Molecule | binding |
| --- | --- |
| SHDLAPQFL | inactive |
| GIADFIIFK | inactive |
| QVNDVLHSV | inactive |
| SLVAIHLAC | inactive |
| ILNSDDEQA | inactive |
| IESNPLFPV | inactive |
| DPPEPLVRI | inactive |
| WHTTKGAAL | inactive |
| FGAAVSLLF | inactive |
| GHMMVIFRL | inactive |
| MAMTGLPQA | inactive |
| TTDDSTSYY | inactive |
| LMRRFRFTV | inactive |
| RVLTARKTV | inactive |
| ELLDHLLLF | inactive |
| DEWECTRDD | inactive |
| VWKQLFPEL | inactive |
| WFLYVSQQI | inactive |
| VVSEIDLQW | inactive |

Set 3
Target: RING finger protein unkempt homolog, zinc fingers 1-6, GST-SBP tag (UNK, Homo sapiens, UniProt Q9C0B0, residues 30-357)
Method: RNA Bind-n-Seq
Molecule type: RNA
Medium: in vitro
Tested at: not given
Notes: RNA with constant flanks, ends assumed
Reference: input RNA pool
Reading: higher = stronger binding
Shared flanks, not repeated: GGGAGUUCUACAGUCCGACGAUC … CAACAGAGGAUUGAGCAUCA
Construct (chain): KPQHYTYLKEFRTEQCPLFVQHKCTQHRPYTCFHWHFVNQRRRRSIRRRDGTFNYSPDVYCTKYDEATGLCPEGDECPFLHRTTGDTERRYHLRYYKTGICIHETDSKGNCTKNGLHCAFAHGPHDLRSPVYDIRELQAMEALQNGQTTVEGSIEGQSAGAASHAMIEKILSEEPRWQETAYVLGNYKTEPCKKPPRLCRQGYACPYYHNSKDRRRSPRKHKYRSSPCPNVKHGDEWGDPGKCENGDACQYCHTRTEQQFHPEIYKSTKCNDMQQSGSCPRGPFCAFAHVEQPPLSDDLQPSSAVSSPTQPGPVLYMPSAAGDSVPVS
| Strand | bound/input enrichment [ratio] |
| --- | --- |
| GCUCCACAGUUAGGAGGUAGCUUUGCAGUUUGGGGAGGGCUGUUUUCCAUGAUUGACUGCCGUAUGGUUCAAGUCAGAGGAAAGGAAGAUCCCUGGAACUCCAUCACAAGUGGUGCCUUA | 0.166 |
| GACCCCAUGCUGCUGCAGUUUUUCAAGUCUCAAGGUUAUAGGGACGGCCCCGGUAAUCCUCUCCGGCAUAAUUACGAAGGUACUUUAAGAGAUCUUCUACAAUUCUUCAAGCCAAGACAA | 0.411 |
| GUUGCCUACAUGUCCCUGGCUGUUGAGGCGCUGCUUCAGCCUGCACCCCUCCCUUGUCUCACCGAUGCUCCUUUUGACCUUUUCAAAUAAAUAUGGAUGGCGAGCUCCUAGGCCUCUGGC | 0.292 |
| ACGACAUUGCGACAGCGCAGAAAGCCAGUGUUCCACCUGUCCCACGAGGAGCGUGUCCAACACCGGAACAUUAAAGACCUUAAGCUGGCCUUCAGCGAGUUCUACCUCAGUCUCAUCCUG | 0.0876 |
| CCACCAGAUUCCAGCCAACAUGACUCUUGCAGCCUAUAAGGAGAAGAUGAAGGAACUCCCACCCGUGUCUCUGUUCUGCUCUUGCUUCUUGUCUGAUCCCCUGAAUAAAUCAUCCUACAA | 0.368 |
| UAAGCAUAUUAACAUUUUUAAGCAAAAGAUACGUUAACAGUGACCUUUGGUUAUCCACAGCCGCAAGAGUAAAGCACAGAUCAUUGAAAUCCAUAGAUAAUCAGUGAAUCAACUUUCCUA | 0.172 |
| GCCCGAGGCCUGAAGGAUGCUAACCAAAUUCGAGACGAAGAGCGCGCGGGUCAAAGGCCUCCGUUUUCAUCCUAAAAGACCCUGGAUCCUGACCAGUUUACACAAUGGGGUCAUCCAGUU | 0.0602 |
| GAACUUCAAGCUUUACAAAUAUUACAGAAGAAAAAACAUAAAAAUUCUCAGUUAGAUAAAAACCGUGAAAUUUGCCAGGAAGUUCAAGCUGUAUGUGAUGCCCUCGGGGUCCCCAAGUCU | 0.421 |

Single results of other studies
Method: cross-linking MS
Notes: hits only
| Substance | partner | interaction screen |
| --- | --- | --- |
| NUP214 (Homo sapiens, UniProt P35658) | NUP62 (Homo sapiens, UniProt P37198) | cross-linked |
| TIMM50 (Homo sapiens, UniProt Q3ZCQ8) | ATAD3A (Homo sapiens, UniProt Q9NVI7) | cross-linked |
| NOP56 (Homo sapiens, UniProt O00567) | SNU13 (Homo sapiens, UniProt P55769) | cross-linked |
| DDX5 (Homo sapiens, UniProt P17844) | DDX17 (Homo sapiens, UniProt Q92841) | cross-linked |

A few entries again (set 3):
| Strand | bound/input enrichment [ratio] |
| --- | --- |
| GCUCCACAGUUAGGAGGUAGCUUUGCAGUUUGGGGAGGGCUGUUUUCCAUGAUUGACUGCCGUAUGGUUCAAGUCAGAGGAAAGGAAGAUCCCUGGAACUCCAUCACAAGUGGUGCCUUA | 0.166 |
| GACCCCAUGCUGCUGCAGUUUUUCAAGUCUCAAGGUUAUAGGGACGGCCCCGGUAAUCCUCUCCGGCAUAAUUACGAAGGUACUUUAAGAGAUCUUCUACAAUUCUUCAAGCCAAGACAA | 0.411 |
| GUUGCCUACAUGUCCCUGGCUGUUGAGGCGCUGCUUCAGCCUGCACCCCUCCCUUGUCUCACCGAUGCUCCUUUUGACCUUUUCAAAUAAAUAUGGAUGGCGAGCUCCUAGGCCUCUGGC | 0.292 |
| ACGACAUUGCGACAGCGCAGAAAGCCAGUGUUCCACCUGUCCCACGAGGAGCGUGUCCAACACCGGAACAUUAAAGACCUUAAGCUGGCCUUCAGCGAGUUCUACCUCAGUCUCAUCCUG | 0.0876 |
